Measurements collected from several papers.
Each line is one published result; not all experiments were run side by side.

| SMILES | species | medium | route | dose | notes | Cmax |
| --- | --- | --- | --- | --- | --- | --- |
| C#C[C@]1(CO)O[C@@H](n2cnc3c(N)nc(F)nc32)C[C@@H]1O | human | plasma | oral | 400 mg | single dose, fasted | 9910 nM |
| O=C(c1nc2n(n1)[C@H](c1ccccc1)C[C@@H]2F)C1CC1 | human | plasma | oral | 5 mg | single dose, fasted, healthy volunteers | 98.6 ng/mL |
| N#Cc1ccc(-c2cnc3ccc(-c4ccc(C(=O)N5CCOCC5)cc4)cn23)cc1 | human | plasma | oral | 10 mg | single dose, fed, healthy volunteers | 733 ng/mL |
| CCCCCN1C[C@H](O)[C@@H](O)[C@H](O)[C@@H]1CO | male human | plasma | oral | 10 mg | single dose, fasted, healthy volunteers | 99.8 ng/mL |
| CS(=O)(=O)n1cc2c(n1)CN([C@H]1CO[C@H](c3cc(F)ccc3F)[C@@H](N)C1)C2 | male human | plasma | oral | 10 mg | single dose, fasted | 298 nM |
| CC[C@@]1(O)C(=O)OCc2c1cc1n(c2=O)Cc2cc3c(CN(C)C)c(O)ccc3nc2-1 | human | plasma | oral | 4 mg | patients | 9.29 ng/mL |
| O=C(CCCCCCC(=O)Nc1ccccc1)NO | human | serum | oral | 600 mg | patients | 2390 nM |
| Nc1ncc(-c2cnn(CCO)c2)c2scc(-c3ccc(NC(=O)Nc4cccc(F)c4)cc3)c12 | human | plasma | oral | 540 mg | patients | 521 ng/mL |
| CNCc1ccc(-c2[nH]c3cc(F)cc4c3c2CCNC4=O)cc1 | human | plasma | oral | 600 mg | multiple doses, twice daily, steady state, patients | 2420 ng/mL |
| CC(=O)O[C@@]12CO[C@@H]1C[C@H](O)[C@@]1(C)C(=O)[C@H](O)C3=C(C)[C@@H](OC(=O)[C@H](O)[C@@H](NC(=O)OC(C)(C)C)c4ccccc4)C[C@@](O)([C@@H](OC(=O)c4ccccc4)[C@H]21)C3(C)C | human | plasma | intravenous | 75 mg/m² | patients | 799 ng/mL |
| Nc1cc(F)ccc1NC(=O)c1ccc(CNC(=O)/C=C/c2cccnc2)cc1 | human | plasma | oral | 40 mg | patients | 590 ng/mL |
| CCOc1cc([C@@H](CS(C)(=O)=O)N2C(=O)c3cccc(NC(C)=O)c3C2=O)ccc1OC | male human | plasma | oral | 20 mg | single dose, healthy volunteers | 246 ng/mL |
| CCc1nc(C(N)=O)c(Nc2ccc(N3CCC(N4CCN(C)CC4)CC3)c(OC)c2)nc1NC1CCOCC1 | human | plasma | oral | 40 mg | single dose, fasted, healthy volunteers | 21.2 ng/mL |
| C[C@@H]1CCC[C@H](n2cnc(-c3cc(Cl)ccc3-n3cc(Cl)nn3)cc2=O)c2cc(ccn2)-c2c(cnn2C(F)F)NC1=O | human | plasma | oral | 300 mg | single dose, fasted, healthy volunteers | 1020 ng/mL |
| Cc1c(Cl)c(C)[n+]([O-])c(Cl)c1-c1noc(-c2cc(O)c(O)c([N+](=O)[O-])c2)n1 | male human | plasma | oral | 25 mg | single dose, fasted, healthy volunteers, tablet | 970 ng/mL |
| CCCOc1ccc([C@H]2CNC(=O)N2c2ccc3[nH]cnc3c2)cc1 | human | plasma | oral | 10 mg | single dose, fasted | 36.2 ng/mL |
| C[C@H](N)C(=O)N1C[C@H](CCCB(O)O)[C@](N)(C(=O)O)C1 | human | plasma | oral | 75 mg twice daily | multiple doses, patients | 1940 ng/mL |
| Nc1ccc(-c2nc([C@H]3CCc4cc(-c5cc(Cl)ccc5-n5cnnn5)cc(=O)n43)c(F)[nH]2)c(F)n1 | human | plasma | oral | 80 mg | single dose, fasted | 942 ng/mL |
| C=C(C)[C@@H]1CC[C@]2(NCCN3CCS(=O)(=O)CC3)CC[C@]3(C)[C@H](CC[C@@H]4[C@@]5(C)CC=C(C6=CC[C@@](CF)(C(=O)O)CC6)C(C)(C)[C@@H]5CC[C@]43C)[C@@H]12 | human | plasma | oral | 80 mg | multiple doses, once daily, patients | 750 ng/mL |
| CNC(=O)c1ccccc1Sc1ccc2c(/C=C/c3ccccn3)n[nH]c2c1 | human | plasma | oral | 7 mg | single dose, fed | 23.3 ng/mL |
| COc1cccc(-c2ccc(NC(=O)C3=C(C(=O)O)CCC3)c(F)c2)c1 | male human | plasma | oral | 30 mg | single dose, fasted, healthy volunteers | 4940 ng/mL |
| Cc1cc(-c2ccc(C(=O)[C@@H]3CCCC[C@H]3C(=O)Nc3cnn4c3C(=O)NCC4)cc2)n[nH]1 | human | plasma | oral | 25 mg | single dose, fasted, healthy volunteers | 27.1 nM |
| CN1CC[C@@H](NC(=O)Nc2ccc(C#N)cc2)C[C@@H]1c1nc2ccccc2[nH]1 | human | plasma | oral | 25 mg | single dose, patients | 281 ng/mL |
| CNC(=O)c1ccc(-c2cnc3ncc(Cc4ccc5ncccc5c4)n3n2)cc1F | human | plasma | oral | 250 mg twice daily | multiple doses, steady state, patients | 1580 ng/mL |
| CC(C)[C@@H](CS(=O)(=O)C(C)C)N1C(=O)[C@@](C)(CC(=O)O)C[C@H](c2cccc(Cl)c2)[C@H]1c1ccc(Cl)cc1 | human | plasma | oral | 60 mg | single dose, fasted, tablet | 431 ng/mL |
| CNc1nc(Nc2ccc(-n3cnc(C)n3)c(OC)c2)nc2c1CC[C@H]2c1ccc(F)cc1 | human | plasma | oral | 300 mg | fed | 721 ng/mL |

For quick reference, copied from above:
| SMILES | species | medium | route | dose | notes | Cmax |
| --- | --- | --- | --- | --- | --- | --- |
| CS(=O)(=O)n1cc2c(n1)CN([C@H]1CO[C@H](c3cc(F)ccc3F)[C@@H](N)C1)C2 | male human | plasma | oral | 10 mg | single dose, fasted | 298 nM |
| CC[C@@]1(O)C(=O)OCc2c1cc1n(c2=O)Cc2cc3c(CN(C)C)c(O)ccc3nc2-1 | human | plasma | oral | 4 mg | patients | 9.29 ng/mL |
| O=C(CCCCCCC(=O)Nc1ccccc1)NO | human | serum | oral | 600 mg | patients | 2390 nM |
